Results gathered from unrelated publications.
Lines come from different studies, so protocols differ. ± marks the error that the study gave.
Formate-nitrite transporter: Formate-nitrite transporter (Plasmodium falciparum, UniProt O77389)
Sequence of UniProt O77389 (whole entry, looked up): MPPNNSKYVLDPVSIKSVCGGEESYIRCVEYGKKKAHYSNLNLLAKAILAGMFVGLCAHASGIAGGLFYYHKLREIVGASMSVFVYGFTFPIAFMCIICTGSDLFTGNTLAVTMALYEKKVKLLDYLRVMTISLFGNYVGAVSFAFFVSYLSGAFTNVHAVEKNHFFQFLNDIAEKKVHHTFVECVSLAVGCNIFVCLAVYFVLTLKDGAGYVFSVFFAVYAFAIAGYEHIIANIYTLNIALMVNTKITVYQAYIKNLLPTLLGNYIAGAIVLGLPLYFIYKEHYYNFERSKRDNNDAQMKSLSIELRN
Sequence of UniProt P21397 (whole entry, looked up): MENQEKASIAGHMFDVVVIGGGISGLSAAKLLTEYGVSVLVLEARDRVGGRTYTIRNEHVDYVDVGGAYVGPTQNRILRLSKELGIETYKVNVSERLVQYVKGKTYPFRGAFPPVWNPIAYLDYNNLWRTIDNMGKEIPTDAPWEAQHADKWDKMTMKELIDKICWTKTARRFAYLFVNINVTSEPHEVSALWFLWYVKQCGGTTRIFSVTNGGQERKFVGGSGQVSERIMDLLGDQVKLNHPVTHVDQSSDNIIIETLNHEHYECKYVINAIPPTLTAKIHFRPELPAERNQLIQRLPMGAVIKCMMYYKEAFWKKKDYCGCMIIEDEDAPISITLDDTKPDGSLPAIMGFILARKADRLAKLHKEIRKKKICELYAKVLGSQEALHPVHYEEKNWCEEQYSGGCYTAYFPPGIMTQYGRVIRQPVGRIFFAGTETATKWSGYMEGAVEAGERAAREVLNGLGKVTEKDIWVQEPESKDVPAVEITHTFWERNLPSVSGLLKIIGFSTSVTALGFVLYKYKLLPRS
Sequence of UniProt O60911 (whole entry, looked up): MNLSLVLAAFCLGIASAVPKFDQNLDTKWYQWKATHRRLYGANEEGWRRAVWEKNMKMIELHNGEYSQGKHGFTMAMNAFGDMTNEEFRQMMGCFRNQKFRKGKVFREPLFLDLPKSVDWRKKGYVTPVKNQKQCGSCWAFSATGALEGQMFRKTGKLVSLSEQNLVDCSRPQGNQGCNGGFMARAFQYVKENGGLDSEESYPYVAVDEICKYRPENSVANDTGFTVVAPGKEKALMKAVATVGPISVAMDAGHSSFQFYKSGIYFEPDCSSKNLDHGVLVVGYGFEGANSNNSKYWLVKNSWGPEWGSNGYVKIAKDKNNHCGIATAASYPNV
Sequence of UniProt Q9NXA8 (whole entry, looked up): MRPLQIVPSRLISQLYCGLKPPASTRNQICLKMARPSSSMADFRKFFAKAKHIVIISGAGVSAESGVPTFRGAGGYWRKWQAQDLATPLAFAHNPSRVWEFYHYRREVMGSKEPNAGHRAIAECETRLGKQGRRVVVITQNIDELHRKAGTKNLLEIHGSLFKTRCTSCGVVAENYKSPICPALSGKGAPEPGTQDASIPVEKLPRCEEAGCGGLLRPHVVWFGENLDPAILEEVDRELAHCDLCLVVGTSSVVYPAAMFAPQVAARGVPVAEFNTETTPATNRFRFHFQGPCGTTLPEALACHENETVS
Sequence of UniProt P61073 (whole entry, looked up): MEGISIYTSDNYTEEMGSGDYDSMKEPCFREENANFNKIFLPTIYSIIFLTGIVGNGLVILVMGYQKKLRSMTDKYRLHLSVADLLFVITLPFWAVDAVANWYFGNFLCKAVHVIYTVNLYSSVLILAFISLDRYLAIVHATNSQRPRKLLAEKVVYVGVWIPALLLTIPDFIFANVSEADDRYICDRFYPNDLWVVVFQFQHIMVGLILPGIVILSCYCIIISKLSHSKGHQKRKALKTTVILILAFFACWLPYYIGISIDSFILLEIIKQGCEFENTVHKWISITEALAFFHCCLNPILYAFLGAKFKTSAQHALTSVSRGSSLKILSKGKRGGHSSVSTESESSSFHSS
Sequence of UniProt P15090 (whole entry, looked up): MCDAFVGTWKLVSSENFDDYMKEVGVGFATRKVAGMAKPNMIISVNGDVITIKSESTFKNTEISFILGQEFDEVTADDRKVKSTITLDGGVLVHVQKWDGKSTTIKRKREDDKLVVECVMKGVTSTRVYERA
Sequence of UniProt P33261 (whole entry, looked up): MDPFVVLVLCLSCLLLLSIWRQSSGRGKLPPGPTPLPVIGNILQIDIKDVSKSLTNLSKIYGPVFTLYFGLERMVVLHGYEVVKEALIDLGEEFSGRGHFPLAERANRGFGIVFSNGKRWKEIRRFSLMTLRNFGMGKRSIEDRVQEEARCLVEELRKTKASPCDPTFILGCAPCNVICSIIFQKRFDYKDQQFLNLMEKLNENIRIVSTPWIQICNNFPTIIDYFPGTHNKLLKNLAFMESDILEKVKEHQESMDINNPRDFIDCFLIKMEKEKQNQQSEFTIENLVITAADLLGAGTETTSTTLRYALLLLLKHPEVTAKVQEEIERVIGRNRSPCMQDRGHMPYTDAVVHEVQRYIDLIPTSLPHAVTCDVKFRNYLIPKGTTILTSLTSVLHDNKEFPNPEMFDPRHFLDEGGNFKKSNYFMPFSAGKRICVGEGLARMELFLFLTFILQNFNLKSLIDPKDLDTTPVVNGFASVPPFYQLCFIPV
Sequence of UniProt Q99436 (whole entry, looked up): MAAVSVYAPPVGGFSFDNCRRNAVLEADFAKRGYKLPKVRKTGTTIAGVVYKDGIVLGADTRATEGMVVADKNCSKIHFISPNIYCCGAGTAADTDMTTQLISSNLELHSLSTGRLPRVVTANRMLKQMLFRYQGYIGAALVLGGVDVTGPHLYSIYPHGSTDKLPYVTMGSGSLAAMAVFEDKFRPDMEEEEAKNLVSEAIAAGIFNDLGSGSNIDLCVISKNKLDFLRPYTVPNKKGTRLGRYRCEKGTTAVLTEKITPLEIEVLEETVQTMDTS
Sequence of UniProt C7C422 (whole entry, looked up): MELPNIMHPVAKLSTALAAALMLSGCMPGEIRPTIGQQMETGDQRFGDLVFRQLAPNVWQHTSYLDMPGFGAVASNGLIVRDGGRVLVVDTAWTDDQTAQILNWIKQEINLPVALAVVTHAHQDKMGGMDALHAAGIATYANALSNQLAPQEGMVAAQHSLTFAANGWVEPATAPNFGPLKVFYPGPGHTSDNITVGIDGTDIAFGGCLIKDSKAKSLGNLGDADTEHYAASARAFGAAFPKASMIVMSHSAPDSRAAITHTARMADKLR

Cc1ccc(N2CC3CC(C2)N3C)cc1C(=O)NC1(c2ccc3c4c(cccc24)C(=O)N3C)CC1 — IC50 (CYP2C19 (Homo sapiens, UniProt P33261); enzyme activity, inhibitor): 29.9 µM
Cc1ccc2c(n1)c(-c1cccc(S(C)(=O)=O)c1)c(C)n2C/C(F)=C/CN — IC50 (MAOA (Homo sapiens, UniProt P21397); enzyme activity, inhibitor, fluorescence): > 30 µM
CC(C)C[C@@H](N)C(=O)NCC(=O)N[C@H](C)C(=O)N[C@H](CO)C(=O)N[C@H](Cc1c[nH]c2ccccc12)C(=O)N[C@H](Cc1c[nH]cn1)C(=O)N[C@H](CCCNC(=N)N)C(=O)N1CCC[C@@H]1C(=O)N[C@H](CC(=O)O)C(=O)N[C@H](CCCCN)C(=O)N[C@H](CCCCN)C(=O)N[C@H](CCCNC(=N)N)C(=O)NCCCCCC(=O)N[C@H](CCCCN)C(=O)N[C@H](CCCNC(=N)N)C(=O)N[C@H](CCCCN)C(=O)N[C@H](CS)C(=O)N[C@@H](C(=O)N[C@H](CCCNC(=N)N)C(=O)N1CCC[C@@H]1C(=O)N[C@H](CC(N)=O)C(=O)N[C@H](CC(N)=O)C(=O)N[C@H](CC(N)=O)C(=O)N[C@@H](C(N)=O)[C@H](C)O)[C@H](C)O — IC50 (CXCR4 (Homo sapiens, UniProt P61073); antagonist; concentration not given): 0.0428 µM
CC(C)(C)C(=O)OCOP(=O)(OCOC(=O)C(C)(C)C)C1CCCN(O)C1=O (stereo not drawn) — CC50 (NCI-H23): > 100 µM
O=C1NC2(CC2)COc2ncc(F)cc2[C@H]2COCCN2c2ccn3ncc1c3n2 — organ weight (Sprague-Dawley rat, female, spleen; oral, 20 mg/kg/day, 4 weeks): 1.12 ± 0.384 g
CC(C)C[C@H](NC(=O)[C@H](Cc1ccc(CN)cc1)NC(=O)[C@H](Cc1ccccc1)N=[N+]=[N-])C(=O)N[C@H](C(=O)[C@@]1(C)CO1)C1CCCCC1 — IC50 (PSMB7 (Homo sapiens, UniProt Q99436); inhibitor, competitive ABPP; Raji cell lysate; constitutive proteasome β2c): 4.24 µM
CCCCNc1ccc(C(=O)C=C(O)C(F)(F)C(F)(F)F)cn1 — IC50 (Formate-nitrite transporter; L-lactate transport, inhibitor, fluorescence; yeast; pH 6.8, with: L-lactate 1 mM): 0.036 ± 0.02 µM
CC(C)C[C@H](NC(=O)[C@H]1O[C@@H]1C(=O)O)C(=O)NCCCCN=C(N)N — IC50 (Cathepsin L2 (CTSV, Homo sapiens, UniProt O60911); enzyme activity, inhibitor): 0.0103 µM
CCCC[C@@H]1NC(=O)[C@@H](CCC(N)=O)NC(=O)[C@H]2CCCN2C(=O)[C@H]([C@@H](C)CC)NC(=O)[C@@H]2C[C@@H](O)CN2C(=O)[C@H](Cc2ccccc2CN)NC(=O)[C@@H]2CCCN2C(=O)[C@@H](CS)NC1=O — IC50 (blaNDM-1 (Klebsiella pneumoniae, UniProt C7C422); enzyme activity, inhibitor, absorbance): 39.1 µM
O=C(Nc1ccc(-c2ccccc2)cc1)N[C@H]1[C@H]([C@H](O)[C@H](O)CO)OC(C(=O)O)=C[C@@H]1O — IC50 (Sialidase-1 (NEU1, Homo sapiens, UniProt Q99519); enzyme activity, inhibitor): > 500 µM
CSCC[C@H]1NC(=O)[C@H](Cc2ccccc2)NC(=O)[C@H](NC(=O)[C@H](C)N)CSC(=O)[C@H](C(C)C)NC(=O)[C@H](Cc2ccccc2)NC1=O — IC50 (Histidine kinase AgrC (Listeria monocytogenes, UniProt A8E0G3); agr signalling): 0.242 µM
O=S(=O)(O)C(F)(F)C(F)(F)C(F)(F)C(F)(F)C(F)(F)C(F)(F)C(F)(F)C(F)(F)F — IC50 (FABP4 (Homo sapiens, UniProt P15090); ligand displacement, fluorescence; pH 7.5): 11.1 µM
C#CCNC(=O)c1ccc([P+](CCCC(=O)N[C@@H](CCCCNC(=O)c2cncc(OS(=O)(=O)F)c2)C(=O)N[C@@H](CCCNC(=N)N)C(=O)NC2CCC2)(c2ccccc2)c2ccccc2)cc1 — IC50 (SIRT5 (Homo sapiens, UniProt Q9NXA8); inhibitor, fluorogenic; pre-incubation 16 h, with: NAD+ 500 µM): 6.2 ± 0.4 µM
FC(F)(F)C(F)(F)c1nc(-c2cccnc2)n[nH]1 — IC50 (Formate-nitrite transporter; L-lactate transport, inhibitor, fluorescence; yeast; pH 6.8, with: L-lactate 1 mM): 18.8 ± 4.59 µM
CSCC[C@H](NC(=O)[C@@H](NC(=O)[C@H](Cc1c[nH]cn1)NC(=O)CNC(=O)[C@H](Cc1c[nH]cn1)NC(=O)[C@@H]1CCCN1C(=O)[C@H](C)N)C(C)C)C(=O)N[C@H](C(=O)N[C@@H](CCC(=O)O)C(=O)N[C@@H](CC(C)C)C(=O)O)C(C)C — IC50 (HLA class I histocompatibility antigen, A alpha chain, allele A*02:01 (Homo sapiens, UniProt P04439); peptide-MHC binding, radioligand competition binding): > 70 µM

Some of these lines once more:
FC(F)(F)C(F)(F)c1nc(-c2cccnc2)n[nH]1 — IC50 (Formate-nitrite transporter; L-lactate transport, inhibitor, fluorescence; yeast; pH 6.8, with: L-lactate 1 mM): 18.8 ± 4.59 µM
CC(C)(C)C(=O)OCOP(=O)(OCOC(=O)C(C)(C)C)C1CCCN(O)C1=O (stereo not drawn) — CC50 (NCI-H23): > 100 µM
C#CCNC(=O)c1ccc([P+](CCCC(=O)N[C@@H](CCCCNC(=O)c2cncc(OS(=O)(=O)F)c2)C(=O)N[C@@H](CCCNC(=N)N)C(=O)NC2CCC2)(c2ccccc2)c2ccccc2)cc1 — IC50 (SIRT5 (Homo sapiens, UniProt Q9NXA8); inhibitor, fluorogenic; pre-incubation 16 h, with: NAD+ 500 µM): 6.2 ± 0.4 µM
